Published values gathered from unrelated publications.
Compare with care: the assays were run in different laboratories. Several values in a cell are separate wells, animals, samples, runs or records. ± marks the error that the study gave.
Sequence of UniProt P49137 (whole entry, looked up): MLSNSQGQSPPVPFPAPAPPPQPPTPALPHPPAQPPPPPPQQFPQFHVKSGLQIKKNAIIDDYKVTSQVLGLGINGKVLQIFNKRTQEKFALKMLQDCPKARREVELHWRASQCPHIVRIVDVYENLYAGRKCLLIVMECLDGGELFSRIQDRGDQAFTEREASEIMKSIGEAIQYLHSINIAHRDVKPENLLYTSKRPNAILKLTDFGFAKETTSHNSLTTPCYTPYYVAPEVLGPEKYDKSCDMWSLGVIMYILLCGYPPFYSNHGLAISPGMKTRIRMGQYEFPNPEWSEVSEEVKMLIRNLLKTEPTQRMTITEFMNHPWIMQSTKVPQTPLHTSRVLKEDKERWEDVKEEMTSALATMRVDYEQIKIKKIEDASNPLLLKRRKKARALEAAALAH
Sequence of UniProt Q13555 (whole entry, looked up): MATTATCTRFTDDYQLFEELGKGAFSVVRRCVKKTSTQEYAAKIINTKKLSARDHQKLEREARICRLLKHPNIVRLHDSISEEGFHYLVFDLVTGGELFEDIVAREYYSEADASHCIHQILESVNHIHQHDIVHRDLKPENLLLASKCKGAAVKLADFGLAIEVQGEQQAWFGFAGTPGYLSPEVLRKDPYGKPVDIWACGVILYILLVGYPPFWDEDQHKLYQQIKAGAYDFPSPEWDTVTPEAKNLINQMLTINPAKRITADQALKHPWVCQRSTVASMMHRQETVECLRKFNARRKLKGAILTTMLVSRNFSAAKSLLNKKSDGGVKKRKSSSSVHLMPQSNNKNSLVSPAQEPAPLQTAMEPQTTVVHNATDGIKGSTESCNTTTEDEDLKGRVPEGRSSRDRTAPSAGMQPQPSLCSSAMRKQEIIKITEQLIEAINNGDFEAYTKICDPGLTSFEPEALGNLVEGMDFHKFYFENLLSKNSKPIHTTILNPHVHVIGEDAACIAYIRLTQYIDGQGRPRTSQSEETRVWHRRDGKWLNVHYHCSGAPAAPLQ
Sequence of UniProt P41968 (whole entry, looked up): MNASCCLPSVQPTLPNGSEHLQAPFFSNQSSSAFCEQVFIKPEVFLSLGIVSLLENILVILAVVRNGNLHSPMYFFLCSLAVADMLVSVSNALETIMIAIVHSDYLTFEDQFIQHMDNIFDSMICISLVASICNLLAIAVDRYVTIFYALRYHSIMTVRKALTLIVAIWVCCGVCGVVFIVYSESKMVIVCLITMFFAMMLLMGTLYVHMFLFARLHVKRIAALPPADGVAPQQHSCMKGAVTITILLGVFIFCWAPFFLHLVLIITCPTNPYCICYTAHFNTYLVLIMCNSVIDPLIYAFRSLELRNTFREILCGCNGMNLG
Sequence of UniProt P34972 (whole entry, looked up): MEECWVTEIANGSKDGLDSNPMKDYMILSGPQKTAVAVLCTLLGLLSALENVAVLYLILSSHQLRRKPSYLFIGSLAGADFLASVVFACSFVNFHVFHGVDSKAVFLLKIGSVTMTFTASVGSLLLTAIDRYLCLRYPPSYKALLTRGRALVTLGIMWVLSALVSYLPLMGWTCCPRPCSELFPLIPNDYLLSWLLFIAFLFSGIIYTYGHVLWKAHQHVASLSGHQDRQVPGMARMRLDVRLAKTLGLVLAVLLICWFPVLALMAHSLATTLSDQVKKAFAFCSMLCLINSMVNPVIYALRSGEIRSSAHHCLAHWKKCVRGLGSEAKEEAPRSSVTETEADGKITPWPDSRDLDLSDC
Sequence of UniProt P15066 (whole entry, unmodified, looked up): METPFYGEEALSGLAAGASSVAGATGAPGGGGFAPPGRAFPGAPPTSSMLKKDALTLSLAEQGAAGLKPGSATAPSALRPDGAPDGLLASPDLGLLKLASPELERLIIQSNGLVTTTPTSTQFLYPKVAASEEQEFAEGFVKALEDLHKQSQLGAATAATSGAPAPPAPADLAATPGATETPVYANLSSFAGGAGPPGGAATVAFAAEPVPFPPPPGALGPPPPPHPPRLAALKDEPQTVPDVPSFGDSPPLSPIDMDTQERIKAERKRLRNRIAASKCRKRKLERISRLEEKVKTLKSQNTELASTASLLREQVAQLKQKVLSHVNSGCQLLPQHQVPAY
Sequence of UniProt P10809 (whole entry, looked up): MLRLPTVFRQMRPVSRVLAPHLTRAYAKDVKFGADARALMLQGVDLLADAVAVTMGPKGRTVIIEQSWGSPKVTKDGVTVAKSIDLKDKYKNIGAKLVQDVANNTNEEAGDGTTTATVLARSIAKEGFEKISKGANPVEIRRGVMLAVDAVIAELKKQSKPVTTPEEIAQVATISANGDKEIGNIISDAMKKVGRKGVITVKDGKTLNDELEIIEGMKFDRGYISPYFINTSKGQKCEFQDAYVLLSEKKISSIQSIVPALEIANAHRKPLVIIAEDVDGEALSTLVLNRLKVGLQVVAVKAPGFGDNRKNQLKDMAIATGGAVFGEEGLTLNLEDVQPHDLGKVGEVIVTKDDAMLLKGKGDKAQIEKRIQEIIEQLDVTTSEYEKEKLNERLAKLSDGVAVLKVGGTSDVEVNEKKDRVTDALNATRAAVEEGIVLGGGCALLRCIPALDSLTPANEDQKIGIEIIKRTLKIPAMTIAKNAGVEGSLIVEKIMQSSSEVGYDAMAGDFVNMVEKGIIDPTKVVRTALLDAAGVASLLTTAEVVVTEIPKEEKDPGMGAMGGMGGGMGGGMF
Sequence of UniProt Q3TRM4 (whole entry, looked up): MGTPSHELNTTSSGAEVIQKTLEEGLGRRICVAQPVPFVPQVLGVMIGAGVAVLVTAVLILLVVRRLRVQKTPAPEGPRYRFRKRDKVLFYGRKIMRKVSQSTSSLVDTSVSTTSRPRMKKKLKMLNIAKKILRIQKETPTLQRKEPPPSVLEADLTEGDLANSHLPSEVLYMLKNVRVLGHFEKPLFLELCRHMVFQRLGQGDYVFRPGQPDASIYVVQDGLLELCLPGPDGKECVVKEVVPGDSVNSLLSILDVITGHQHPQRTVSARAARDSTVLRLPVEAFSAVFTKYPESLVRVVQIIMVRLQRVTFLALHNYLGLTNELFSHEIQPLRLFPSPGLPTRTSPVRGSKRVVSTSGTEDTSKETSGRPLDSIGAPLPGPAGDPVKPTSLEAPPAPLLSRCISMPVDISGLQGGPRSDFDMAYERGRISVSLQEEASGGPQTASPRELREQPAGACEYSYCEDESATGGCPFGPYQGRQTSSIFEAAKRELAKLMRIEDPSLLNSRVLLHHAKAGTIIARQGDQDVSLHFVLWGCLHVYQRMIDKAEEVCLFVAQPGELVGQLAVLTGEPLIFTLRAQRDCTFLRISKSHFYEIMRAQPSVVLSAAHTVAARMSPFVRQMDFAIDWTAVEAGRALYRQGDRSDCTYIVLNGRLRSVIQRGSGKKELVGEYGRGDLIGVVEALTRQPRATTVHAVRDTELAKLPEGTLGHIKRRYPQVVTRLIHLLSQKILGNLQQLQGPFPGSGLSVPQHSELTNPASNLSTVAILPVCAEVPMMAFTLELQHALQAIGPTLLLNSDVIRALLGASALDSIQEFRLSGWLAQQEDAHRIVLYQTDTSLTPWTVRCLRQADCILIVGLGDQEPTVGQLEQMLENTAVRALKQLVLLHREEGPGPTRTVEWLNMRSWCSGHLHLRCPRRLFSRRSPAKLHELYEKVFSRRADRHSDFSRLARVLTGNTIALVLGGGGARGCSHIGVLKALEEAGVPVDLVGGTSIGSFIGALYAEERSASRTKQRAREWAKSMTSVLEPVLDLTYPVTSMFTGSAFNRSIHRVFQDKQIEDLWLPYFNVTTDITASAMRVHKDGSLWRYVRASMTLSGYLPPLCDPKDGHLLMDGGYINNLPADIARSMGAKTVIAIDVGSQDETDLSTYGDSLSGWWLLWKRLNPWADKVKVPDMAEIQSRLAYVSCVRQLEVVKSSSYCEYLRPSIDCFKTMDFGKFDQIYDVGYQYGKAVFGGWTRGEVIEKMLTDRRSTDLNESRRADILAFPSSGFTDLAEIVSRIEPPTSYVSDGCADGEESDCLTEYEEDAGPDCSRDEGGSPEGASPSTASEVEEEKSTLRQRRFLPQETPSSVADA
Sequence of UniProt O00329 (whole entry, looked up): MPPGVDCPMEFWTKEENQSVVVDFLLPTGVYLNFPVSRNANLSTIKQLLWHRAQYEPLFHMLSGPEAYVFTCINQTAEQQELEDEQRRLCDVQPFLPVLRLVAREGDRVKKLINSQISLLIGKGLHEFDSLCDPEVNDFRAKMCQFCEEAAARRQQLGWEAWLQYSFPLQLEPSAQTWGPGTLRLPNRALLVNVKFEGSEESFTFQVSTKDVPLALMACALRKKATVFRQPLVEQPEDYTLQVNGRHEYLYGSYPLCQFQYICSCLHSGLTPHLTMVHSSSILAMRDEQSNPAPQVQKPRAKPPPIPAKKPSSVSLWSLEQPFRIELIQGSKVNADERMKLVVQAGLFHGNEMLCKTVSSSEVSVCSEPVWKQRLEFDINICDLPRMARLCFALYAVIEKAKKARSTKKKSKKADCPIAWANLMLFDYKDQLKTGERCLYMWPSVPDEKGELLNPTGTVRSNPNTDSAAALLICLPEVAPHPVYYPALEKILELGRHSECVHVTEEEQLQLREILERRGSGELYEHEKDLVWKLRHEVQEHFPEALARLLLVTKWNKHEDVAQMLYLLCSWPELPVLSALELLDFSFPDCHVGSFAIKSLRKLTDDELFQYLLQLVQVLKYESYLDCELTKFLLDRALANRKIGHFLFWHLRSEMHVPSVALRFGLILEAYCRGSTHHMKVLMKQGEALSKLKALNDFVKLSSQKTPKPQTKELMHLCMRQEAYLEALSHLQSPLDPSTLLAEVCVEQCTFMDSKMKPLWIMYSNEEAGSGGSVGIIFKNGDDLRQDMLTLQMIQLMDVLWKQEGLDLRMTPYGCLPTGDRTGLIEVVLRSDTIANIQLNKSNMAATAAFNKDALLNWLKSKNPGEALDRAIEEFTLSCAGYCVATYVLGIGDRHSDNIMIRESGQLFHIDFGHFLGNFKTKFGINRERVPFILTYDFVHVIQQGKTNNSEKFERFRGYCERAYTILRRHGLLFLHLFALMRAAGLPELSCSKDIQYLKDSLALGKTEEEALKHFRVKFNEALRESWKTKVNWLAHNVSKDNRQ

| Compound | target | assay | system | setting | how to read | quantity | result |
| --- | --- | --- | --- | --- | --- | --- | --- |
| CC(C)[C@H]1NC(=O)C[C@H]2/C=C/CCSSC[C@@H](NC1=O)C(=O)N[C@H](Cc1cccc3ccccc13)C(=O)NCC(=O)O2 | Calcium/calmodulin-dependent protein kinase type II subunit gamma (CAMK2G, Homo sapiens, UniProt Q13555) | enzyme activity, inhibitor | – | 10 µM | – | inhibition | -2.7% |
| CC(C)CC(O)(CC(C)C)c1cn(C(=O)N2CCCC2)nn1 | Patatin-like phospholipase domain-containing protein 6 (Mus musculus, UniProt Q3TRM4) | – | mouse, brain | concentration not given | relative to: vehicle over compound | activity-based probe labelling ratio | 1.29 |
| O=C(CCl)c1ccc(F)cc1 | Fosb/Jund, ΔFosB bZIP domain (Mus musculus, UniProt P13346+P15066) | intact mass LC-MS, measured: JUND adduct, HCl lost | – | concentration not given | relative to: total JUND species | relative abundance | 32.6% |
| CCCCCC(O)/C=C/C=O (stereo not shown) | 60 kDa heat shock protein, mitochondrial (Homo sapiens, UniProt P10809) | competitive isoTOP-ABPP, measured: HSPD1 cysteine peptide | proteome, soluble, MDA-MB-231 | 100 µM, together with: iodoacetamide probe | relative to: DMSO over compound-treated, higher = stronger cysteine blockade | isoTOP-ABPP competition ratio | 2 |
| O=C1NC(=O)c2c1c1cc(F)c[n+]3c1c1c2c2cc(O)ccc2[n]1[Ru-4]312([N]=C=S)[S+]3CC[S+]1CC[S+]2CC3 (stereo not shown) | Tyrosine-protein kinase TXK (TXK, Homo sapiens, UniProt P42681) | enzyme activity | – | 100 nM, human enzyme, together with: 10 µM ATP | relative to: untreated | remaining activity | 106% |
| CC(=O)N[C@@H](CCC(N)=O)C(=O)N[C@@H](CC1CCCCC1)C(=O)N[C@@H](CNC(=O)CCl)C(=O)N[C@@H](CC(C)C)C(=O)N[C@@H](Cc1ccccc1)C(=O)O | Beta sliding clamp (Escherichia coli, UniProt P0A988) | binding, isothermal titration calorimetry | – | 25 °C | – | -TΔS | 2.5 kcal/mol |
| CCOC(=O)[C@@](CC)(CCCSCCOCCOCCNc1ccc([N+](=O)[O-])c2nonc12)NC(=O)c1ccc(C2CC2)c(Cc2ccc(F)cc2)n1 | Cannabinoid receptor 2 (CNR2, Homo sapiens, UniProt P34972) | radioligand binding | – | – | relative to: CB1 over CB2 (human) | Ki ratio | 31 |
| Cc1ccccc1/N=N/c1cccc([B-](F)(F)F)c1.[K+] | Chymotrypsinogen A (Bos taurus, UniProt P00766) | enzyme activity, inhibitor | – | together with: Suc-AAPF-AMC | relative to: Ki cis over Ki trans | switching factor | 6.4 ± 0.2 |
| CN(C)[C@H]1C[C@@]23CC[C@@]4(O2)C(=CC[C@]2(C)[C@@H](c5ccc6ccncc6c5)CC[C@H]24)C=C3[C@@H](O)[C@@H]1O | Phosphatidylinositol 4,5-bisphosphate 3-kinase catalytic subunit delta isoform (PIK3CD, Homo sapiens, UniProt O00329) | ATP probe labelling, inhibitor, KiNativ profiling | – | 0.1 µM | – | inhibition | -12.5% |
| CS(C)(=O)=Nc1ccc(-c2ccc(-c3nc4cc(O[C@@H]5CO[C@H]6[C@@H]5OC[C@H]6O)[nH]c4cc3F)cc2)cc1 | central benzodiazepine receptor | binding | – | 10 µM | – | inhibition | 14% |
| [CH3][Ti+2][O]C(=O)c1ccc([S][Au][PH](c2ccccc2)(c2ccccc2)c2ccccc2)cc1.c1cc[cH-]c1.c1cc[cH-]c1 | MAP kinase-activated protein kinase 2 (MAPKAPK2, Homo sapiens, UniProt P49137) | kinase activity, HotSpot radiometric | – | 1 µM, together with: ATP 10 µM | relative to: vehicle | remaining activity | 39.2% and 39.4% |
| CCCC[C@H](NC(C)=O)C(=O)N[C@H]1CCC(=O)NCCC[C@@H](C(=O)N[C@@H](C(=O)N2CCC[C@@H]2C(N)=O)C(C)C)NC(=O)[C@H](Cc2c[nH]c3ccccc23)NC(=O)[C@H](CCCNC(=N)N)NC(=O)[C@@H](Cc2ccc(F)cc2)NC(=O)[C@H](Cc2c[nH]cn2)NC1=O | Melanocortin receptor 3 (MC3R, Homo sapiens, UniProt P41968) | cAMP, agonist | CHO-K1 | – | – | Emax | 96% |
| C#CCCCCOc1ccc2c(c1)CCCN2C(=O)CCl | Sulfhydryl oxidase 1 (QSOX1, Homo sapiens, UniProt O00391) | mass spectrometry profiling | H460 cell lysate | 100 µM over 10 µM, UniProt O00391 | relative to: high over low concentration | reactivity ratio | 1.63 |

Some of these lines once more:
| Compound | target | assay | system | setting | how to read | quantity | result |
| --- | --- | --- | --- | --- | --- | --- | --- |
| CCCC[C@H](NC(C)=O)C(=O)N[C@H]1CCC(=O)NCCC[C@@H](C(=O)N[C@@H](C(=O)N2CCC[C@@H]2C(N)=O)C(C)C)NC(=O)[C@H](Cc2c[nH]c3ccccc23)NC(=O)[C@H](CCCNC(=N)N)NC(=O)[C@@H](Cc2ccc(F)cc2)NC(=O)[C@H](Cc2c[nH]cn2)NC1=O | Melanocortin receptor 3 (MC3R, Homo sapiens, UniProt P41968) | cAMP, agonist | CHO-K1 | – | – | Emax | 96% |
